Experimental data collected from several papers.
Protocols differ between the studies behind these lines. ± gives the spread as reported.
LYN: Tyrosine-protein kinase Lyn (LYN, Homo sapiens, UniProt P07948)
Sequence of UniProt P07948 (whole entry, looked up): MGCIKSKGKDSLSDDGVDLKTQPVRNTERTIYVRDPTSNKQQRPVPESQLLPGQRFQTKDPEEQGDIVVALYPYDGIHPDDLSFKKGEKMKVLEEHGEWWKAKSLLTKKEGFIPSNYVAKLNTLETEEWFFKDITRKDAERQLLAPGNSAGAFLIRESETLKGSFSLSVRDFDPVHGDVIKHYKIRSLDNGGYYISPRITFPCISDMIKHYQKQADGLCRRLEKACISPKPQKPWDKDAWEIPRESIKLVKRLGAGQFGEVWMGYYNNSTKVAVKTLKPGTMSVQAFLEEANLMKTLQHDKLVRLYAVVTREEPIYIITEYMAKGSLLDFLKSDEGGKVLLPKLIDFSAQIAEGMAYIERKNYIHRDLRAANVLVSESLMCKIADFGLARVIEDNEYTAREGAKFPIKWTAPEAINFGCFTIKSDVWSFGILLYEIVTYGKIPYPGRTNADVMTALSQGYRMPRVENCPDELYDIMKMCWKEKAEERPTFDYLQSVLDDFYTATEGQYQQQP
LYN isoform B: Tyrosine-protein kinase Lyn, isoform B (LYN, Homo sapiens, UniProt P07948)
UCHL1: Ubiquitin carboxyl-terminal hydrolase isozyme L1 (UCHL1, Homo sapiens, UniProt P09936)
Sequence of UniProt P09936 (whole entry, looked up): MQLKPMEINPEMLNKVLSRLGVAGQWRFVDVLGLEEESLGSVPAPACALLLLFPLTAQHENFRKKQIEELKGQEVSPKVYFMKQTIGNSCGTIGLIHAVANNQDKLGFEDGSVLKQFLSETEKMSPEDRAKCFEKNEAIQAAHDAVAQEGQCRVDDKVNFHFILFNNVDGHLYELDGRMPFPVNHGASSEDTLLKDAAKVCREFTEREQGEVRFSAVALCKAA
LYN isoform A: Tyrosine-protein kinase Lyn, isoform A (LYN, Homo sapiens, UniProt P07948)

SMILES = CC#CC(=O)N1CCC[C@H]1c1nc(-c2ccc(C(=O)Nc3ccccn3)cc2)c2c(N)nccn12; target = LYN; test = kinase activity, inhibitor, HotSpot radiometric; conditions = 100 nM, added: ATP 10 µM; quantity = remaining activity; result = 103.9 ± 0.5%
SMILES = CC/C(=N\NC(=O)NCc1cccc(O)c1)c1ccc(O)c(C)c1O; target = LYN isoform B; test = kinase activity; conditions = 0.1 µM; quantity = inhibition; result = 2.4%
SMILES = COc1cc2ncnc(Nc3ccc(Oc4ccccc4)cc3C)c2cc1OC; target = LYN isoform B; test = kinase activity, inhibitor; conditions = 1 µM; quantity = inhibition; result = 92%
SMILES = C#CCN1C(=O)C(O)(CC(=O)c2ccc(OC)c([N+](=O)[O-])c2)c2ccccc21 (centres unmarked); target = UCHL1; test = covalent, intact protein LC-MS; conditions = 12.5 µM; quantity = labelling; result = 25.8%
SMILES = [2H]c1cc(C)c(NC(=O)c2cnc(Nc3cc(N4CCCCC4)nc(C)n3)s2)c(Cl)c1; target = LYN isoform A; conditions = 0.01 µM; quantity = inhibition; result = > 90%
SMILES = O=C(CSc1nc2nccnc2c(=O)n1CCc1ccccc1)Nc1nccs1; target = LYN; test = kinase activity, inhibitor; conditions = 10 µM; quantity = inhibition; result = 2%
SMILES = Cc1nc(Nc2ncc(C(=O)Nc3c(C)cccc3Cl)s2)cc(N2CC[C@H](O)C2)n1; target = LYN isoform A; conditions = 0.001 µM; quantity = inhibition; result = 95%
SMILES = Cc1cc(Nc2cc(N3CCN(C)CC3)nc(Sc3ccc(NC(=O)C4CC4)cc3)n2)[nH]n1; target = LYN; test = kinase activity, KinaseProfiler; conditions = 0.03 µM, species human; scale = reference: control; quantity = remaining activity; result = 90%
SMILES = N#CC(=Cc1ccncc1)C(=O)Nc1ccccc1Cl; target = UCHL1; test = covalent, intact protein LC-MS; conditions = 12.5 µM; quantity = labelling; result = 10.2%
SMILES = COc1ccc(F)cc1C(=O)NCc1ccc(-c2nn([C@@H](C)C(F)(F)F)c(N)c2C(N)=O)cc1; target = LYN isoform B; test = kinase activity, inhibitor, HotSpot radiometric; conditions = 1000 nM, added: ATP at Km; quantity = remaining activity; result = 90 ± 1.9%
SMILES = [2H]c1cc(C)c(NC(=O)c2cnc(Nc3cc(N4CCC(O)CC4)nc(C)n3)s2)c(Cl)c1; target = LYN isoform A; conditions = 0.001 µM; quantity = inhibition; result = > 50%
SMILES = C=CC(=O)N1CCC[C@@H](n2nc(-c3ccc(Oc4ccccc4)cc3)c3c(N)ncnc32)C1; target = LYN; test = kinase activity, inhibitor, HotSpot radiometric; conditions = 100 nM, added: ATP 10 µM; quantity = remaining activity; result = 25.3 ± 0.1%
SMILES = CC(C)(O)[C@H]1CC[C@H](Nc2ccc3ncc(-c4cccc(C(F)(F)F)c4)n3n2)CC1; target = LYN isoform B; test = enzyme activity, inhibitor; conditions = 1 µM, added: 10 µM ATP; scale = reference: DMSO; quantity = remaining activity; result = 94.5%
SMILES = CCOc1cc(-c2nncn2C)ccc1Nc1ncc2cc(C)nc(NCC(C)(C)C)c2n1; target = LYN; test = kinase activity, Z'-LYTE; conditions = 1 µM; quantity = inhibition; result = < 15%

Excerpt of the above:
SMILES = CCOc1cc(-c2nncn2C)ccc1Nc1ncc2cc(C)nc(NCC(C)(C)C)c2n1; target = LYN; test = kinase activity, Z'-LYTE; conditions = 1 µM; quantity = inhibition; result = < 15%
